{"data": "Published values collected from several papers", "note": "Numbered parts are unrelated; each lists some results of a single study."}
{"data": "Set 1", "target": "RNA binding protein fox-1 homolog 2, RRM domain, GST-SBP tag (RBFOX2, Homo sapiens, UniProt O43251-10, residues 100-194)", "method": "RNA Bind-n-Seq", "molecule type": "RNA", "medium": "in vitro", "tested at": "365 nM", "setting": "natural RNA segment, single round, ends assumed", "baseline": "no-protein control", "direction": "higher = stronger binding", "constant ends, left off below": "GGGAGUUCUACAGUCCGACGAUC … UGGAAUUCUCGGGUGCCAA", "Target sequence (chain)": "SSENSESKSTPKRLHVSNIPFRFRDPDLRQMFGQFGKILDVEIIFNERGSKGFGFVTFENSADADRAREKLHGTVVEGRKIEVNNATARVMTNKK"}
{"Strand": "CAUAGAGGUACCACCACAAGGGAUGCCCUACUCUCUCGCAGCUCUUGAAAGCAUCUGUUUGAGGGAAAGGUCUCUGGGCAAGCAAGUGGUUAUUUGGAUUGCUUGCUUCC", "RBNS enrichment (R)": 0.353}
{"Strand": "UAAGCACCAUGUGCUAGGCCUCCUCUUAAAUGUUUUUUAAAAAAUAUUAACUUGUUCAAUUCCCUUAACUCUAUGAAAUAGGCAUUAUUACUACCCCCAGGUUUUCAAAU", "RBNS enrichment (R)": 0.498}
{"Strand": "UGGCAACAUGAACUGGGAAACAGAGCUCUCUCUGCCUAGAGAAAGGAGCGGCCCUCAAGAUCUCUUUGCCGAGUUUGGGAGCCAUGAGCAAGUCCUUGGCUCCAUACUUC", "RBNS enrichment (R)": 0.256}
{"Strand": "UUUUGUAGAUGACUGAAGUAUUGUAAGGCGCAGUCAGGAGCUCUGGACUCGAGAACGGCAGAAAGGAGUAGUGCAGAGAGAUGAUUAAGCAAACUCUCCCAGCUCUGUGA", "RBNS enrichment (R)": 0.49}
{"Strand": "GCCACUAGAUGACAAGAUGUUAUAACUAAGUUAAACCACAUCUGUGUAUCUCAAGGGACUUAAUUCAGCUGUCUGUAGUGAAUAAAAGUGGGAAAUUUUCAAAAGUUUCU", "RBNS enrichment (R)": 0.501}
{"Strand": "AAAUACAUGGGAAAAGUGCUCCCCCUGGAAGAGUCACUGUCUGAAUGAAGCAAAGUUCCCUCUCAGCAAACACUGAGAGGCCAUGGAGAAGGACUUCUAGAAUGAAUGAA", "RBNS enrichment (R)": 5.68}
{"Strand": "UCAGUGCUUCACAGUGAAGGGAAAAAAGCCUAGACAAACAUUUUGUCAGAACCUUGCAAUAAGCCAAGGUAUUACCAGUAAAUUGGUUGUAUAUACAAUAAAAUUGCACC", "RBNS enrichment (R)": 0.623}
{"Strand": "GACAUGGUGUUUGCCCAUAUCACUUCCAUUUUGUAUACACUCUGGAUUUGUGUAGGCUGUAUUCCAGUUGGCUUUUUAGUAAUAGAAAUCCCUCAUAUGAUGUAUCAGAU", "RBNS enrichment (R)": 0.274}
{"Strand": "UCUUGUAAAACUUGUAAAUAAACUAUCAUCUUUGUAGAUAUCUUAAAGGUGUAAAGUUUGCAAAUUUGAAGAAAUAUAUAUUAACACUGUGGUCAGGUACAUUCCUUAAA", "RBNS enrichment (R)": 0.446}
{"Strand": "AAUUCUCUUGCAAGUUAUGAAAAUAAAGUAUAUAAAAGGAUCCUGUGCUAUUGUGUGCGUGGUUGCUGAGACAAAAACUGGGACAAAGCAACUUACAGAGGGUAUUUUAG", "RBNS enrichment (R)": 1.37}
{"Strand": "CAUGGUUUAUUUAUGUUGUAGCAAAGUUGGCUCUACAUAAACAUUGUUCUUAUUUUAAAAUUAACACUAUGUGUUCAGUUUUCUUGUGGGCUUCUGAAAGUUGCCAUCUU", "RBNS enrichment (R)": 0.425}
{"Strand": "UUGUUUUUUCGGAUGUUUUCUGGUUUUGUUUCCUUGGAAAUAAAUUAAUAUAUUGUUUUCCACCUUCAGGAAUAGUGGAUAUUUAUUUGAUACCUGGUUAAUAUGCACUG", "RBNS enrichment (R)": 0.566}
{"data": "Set 2", "target": "RING finger protein unkempt homolog, zinc fingers 1-6, GST-SBP tag (UNK, Homo sapiens, UniProt Q9C0B0, residues 30-357)", "method": "RNA Bind-n-Seq", "molecule type": "RNA", "medium": "in vitro", "tested at": "not given", "setting": "RNA with constant flanks, human and mouse sites, ends assumed", "baseline": "input RNA pool", "direction": "higher = stronger binding", "constant ends, left off below": "GGGAGUUCUACAGUCCGACGAUC … CAACAGAGGAUUGAGCAUCA", "UniProt Q9C0B0, sequence (30-357, looked up)": "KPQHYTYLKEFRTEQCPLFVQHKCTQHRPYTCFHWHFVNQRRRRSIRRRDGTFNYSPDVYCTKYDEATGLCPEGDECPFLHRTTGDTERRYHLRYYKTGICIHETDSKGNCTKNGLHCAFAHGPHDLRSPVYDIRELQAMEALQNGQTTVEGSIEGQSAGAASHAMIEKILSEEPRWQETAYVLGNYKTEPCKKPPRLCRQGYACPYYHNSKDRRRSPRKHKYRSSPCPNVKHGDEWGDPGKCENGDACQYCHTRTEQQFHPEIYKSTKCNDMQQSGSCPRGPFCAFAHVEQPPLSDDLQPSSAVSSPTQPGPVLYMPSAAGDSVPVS"}
{"Strand": "AUACAAGAUGCUCUAGGCAACUGUAUUGAUAUCAAUGAGUGUUUGAGUAUCAGUGCCCCGUGCCCUAUCGGGCAUACAUGCAUCAACACAGAGGGCUCCUACACGUGCCAGAAGAACGUG", "bound/input enrichment": "0.126 ratio"}
{"Strand": "CUGGCUGUUGAAAGACUGUUGGAGCCUCUUGUUACACAGGUUACAACCCUGGUAAACACCAAUAGUAAAGGGCCGUCUAAUAAAAAGAGAGGCCGUUCUAAGAAGGCCCAUGUUUUGGCU", "bound/input enrichment": "5.2 ratio"}
{"Strand": "ACCACUCAACAAACAGUCCCCACCACACCUAUCUCCUUAGGCAAGACUUUGCCUCUCUCCUAGUCCUGAGUAUAAAUCCUGUGCAUAGAUUCCUCUAGAAAGGCAUCAAAAGGCUCAACA", "bound/input enrichment": "1.34 ratio"}
{"Strand": "GCUGUUAUCUAUGCGGGUGUACGGGGUUAUCUUGACAAACUGGAGCCCAGCAAGAUCACAAAGUUUGAGAAUGCUUUCUUGUCUCACGUUAUCAGCCAGCACCAGUCCCUCUUGGGCAAU", "bound/input enrichment": "0.133 ratio"}
{"Strand": "UUGAAGGUACUGGGAACAGCUUUUGAUCCUUUCUUAGGAGGAAAAAACUUCGAUGAAAAGUUAGUGGAACAUUUUUGUGCAGAAUUUAAAACUAAGUACAAGUUGGAUGCAAAAUCCAAA", "bound/input enrichment": "0.324 ratio"}
{"Strand": "UCAGACACCAUGGUGUGCCAGUCUUCCUCAACUGUAGGUCAGUCAUUCAGUGAACAACACAUUAGCCAACUUCAAGAAAGCAUUCGGGCAGAGAUACCCUGUGAAGAUGAACAAGAGCAA", "bound/input enrichment": "0.236 ratio"}
{"Strand": "UUUGGGCCCCUCAUCUUCAUUUAUUAUAUUAUCAAAACUGAGAGGGAUAGGAAAGAAAAACUUAUCCAGGAAGGAAAAUUGGAUCGAACAUUUCACCUCUCAUAUUAAGUCUGGCAAUGA", "bound/input enrichment": "1.14 ratio"}
{"Strand": "CUUGACUUUCUACGAAUUAGUGACACAGAAAAGCUUCCAGAAUUUAAGAGCUUUGAAGAACUAGAAUUUCCUAAGCAUUCAAAAGUCAAACGGCAGAGCAGUACCGCAGAUGCUCCUGAG", "bound/input enrichment": "0.549 ratio"}
{"Strand": "AUGCCAAAGGAAAAAUAUGAUCCUCCAGAUCCUCGCAGAAUUUAUACCAUCAUGUCAGCAGAGGAGGUAGCCAAUGGGAAAAAAUCUCACUGGGCAGAAUUAGAAAUCUCGGGUAGAGUG", "bound/input enrichment": "1.1 ratio"}
{"Strand": "GAGUAACAGAGGACAGCUGUUUUUUAACCCUCUUCUGCAAGUUUGUUGACCUACAUGGGCUAAUAUGGAUACUAAAAAUACUACAUUGAUCUAAGAAGAAACUAGCCUUGUGGAGUAUAU", "bound/input enrichment": "0.309 ratio"}
{"Strand": "ACUGGGUUUGGAUUAGGAAUUGUUUUCUCCCUCACCUUCUUUAAGAGAAGAAUGUGGCCAUUAGCCUUUGGUUCUGGCGUGGGAUUGGGAAUGGCCUACUCCAACUGUCAGCAUGACUUU", "bound/input enrichment": "0.381 ratio"}
{"data": "Set 3", "target": "Protein max, full length (MAX, Homo sapiens, UniProt P61244-2, residues 1-151)", "method": "protein-binding microarray", "molecule type": "double-stranded DNA, one strand shown", "medium": "in vitro", "tested at": "not given", "setting": "k-mer, scored over probes, only values ≥0.25", "direction": "higher = stronger binding"}
{"Strand": "GCGTGCTA", "E-score": 0.426}
{"Strand": "AGCCACGC", "E-score": 0.43}
{"Strand": "GCTTAACA", "E-score": 0.271}
{"Strand": "GAAATCAC", "E-score": 0.269}
{"Strand": "AGGCGGGG", "E-score": 0.276}
{"Strand": "GCTGAGCA", "E-score": 0.278}
{"Strand": "CAGGTGCG", "E-score": 0.342}
{"Strand": "ACGCTTGA", "E-score": 0.251}
{"Strand": "ACGTGGCT", "E-score": 0.45}
{"Strand": "GTGTCACA", "E-score": 0.251}
{"Strand": "ACATTGTG", "E-score": 0.278}
{"Strand": "CCCGTGCG", "E-score": 0.369}
{"Strand": "ACCGCGTG", "E-score": 0.481}
{"Strand": "CCGCACGA", "E-score": 0.275}
{"Strand": "CCACGTGG", "E-score": 0.497}
{"Strand": "ACCCACAT", "E-score": 0.29}
{"Strand": "ACATGGCC", "E-score": 0.37}
{"Strand": "ATGTGTTC", "E-score": 0.298}
{"Strand": "TGAGCACA", "E-score": 0.317}
{"Strand": "CAGACATG", "E-score": 0.273}
{"Strand": "CGCACACC", "E-score": 0.271}
{"Strand": "CATGCGCA", "E-score": 0.425}
{"Strand": "CTGGCCAC", "E-score": 0.289}
{"Strand": "AGGTCACG", "E-score": 0.353}
{"Strand": "CGTGACCA", "E-score": 0.41}
{"data": "Set 4", "target": "Interferon regulatory factor 3, full length, phosphomimetic (IRF3, Homo sapiens, UniProt Q14653, residues 1-427, S386D/S396D/S398D/S402D/T404D/S405D)", "method": "protein-binding microarray", "molecule type": "double-stranded DNA, one strand shown", "medium": "in vitro", "tested at": "2540 nM top", "setting": "60-bp whole probe", "added": "salmon DNA 0.4 mg/ml", "baseline": "random background probes", "direction": "higher = stronger binding", "constant ends, left off below": "GCCTAGCAC … GTCTTGATTCGCTTGACGCTGCTG", "Residues (chain)": "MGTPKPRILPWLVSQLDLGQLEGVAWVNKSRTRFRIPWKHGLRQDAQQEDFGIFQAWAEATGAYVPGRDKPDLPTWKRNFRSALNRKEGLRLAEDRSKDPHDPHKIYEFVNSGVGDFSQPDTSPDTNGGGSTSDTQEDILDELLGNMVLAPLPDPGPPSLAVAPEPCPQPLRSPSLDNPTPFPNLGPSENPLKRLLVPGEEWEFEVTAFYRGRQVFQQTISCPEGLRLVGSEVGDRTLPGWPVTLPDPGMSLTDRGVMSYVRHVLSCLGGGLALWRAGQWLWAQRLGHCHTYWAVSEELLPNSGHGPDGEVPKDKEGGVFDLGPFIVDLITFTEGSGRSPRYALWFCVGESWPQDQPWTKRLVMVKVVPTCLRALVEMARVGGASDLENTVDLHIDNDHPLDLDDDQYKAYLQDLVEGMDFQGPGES"}
{"Strand": "TTAGATATCGGGTTTCGGTTAGTGCTA", "fitted relative affinity [z-score]": 3}
{"Strand": "CCCGATATGCGGTAAGGGCGCGTGCTA", "fitted relative affinity [z-score]": -0.158}
{"Strand": "TTACATATCAGTTTCGATTAGTGCTAG", "fitted relative affinity [z-score]": 5.02}
{"Strand": "TTAGATATCGGGTATCGATAAGTGCTA", "fitted relative affinity [z-score]": 0.27}
{"Strand": "GACGATATCAGTTACGAGACGTGCTAG", "fitted relative affinity [z-score]": 0.797}
{"Strand": "AACGGTTTCGGTATCGGGACGTGCTAG", "fitted relative affinity [z-score]": 8.03}
{"Strand": "ATATATATTATATATTTATGTGTGCTA", "fitted relative affinity [z-score]": 0.746}
{"Strand": "TTAGATCTCAGGCTGGATTAGTGCTAG", "fitted relative affinity [z-score]": -0.496}
{"Strand": "CTTGCTTTATGTGTAGGTCTGTGCTAG", "fitted relative affinity [z-score]": 0.0707}
{"Strand": "TTGGCTTATTCCAGATTTTTGTGCTAG", "fitted relative affinity [z-score]": -0.114}
{"Strand": "TTAGATTTCAGTATCGATTAGTGCTAG", "fitted relative affinity [z-score]": 2.84}
{"Strand": "GACGAACTTGGGTTTCGAGACGTGCTA", "fitted relative affinity [z-score]": 0.669}
{"Strand": "GGAGAGTTCCAGGAGGTCGAGTGCTAG", "fitted relative affinity [z-score]": -0.366}
{"Strand": "TATTTTTTCTGAACCATTTTGTGCTAG", "fitted relative affinity [z-score]": 1.91}
{"Strand": "TTAGATTTCAGTCTTGATTAGTGCTAG", "fitted relative affinity [z-score]": 2.37}
{"Strand": "GACGGTCTCGGTTACGGGACGTGCTAG", "fitted relative affinity [z-score]": 1.16}
{"note": "Repeated from above (set 3):"}
{"Strand": "ACCCACAT", "E-score": 0.29}
{"Strand": "ACGTGGCT", "E-score": 0.45}
{"Strand": "CATGCGCA", "E-score": 0.425}
{"Strand": "CAGGTGCG", "E-score": 0.342}
{"Strand": "GTGTCACA", "E-score": 0.251}
{"Strand": "ACATGGCC", "E-score": 0.37}
